Experimental data collected from several papers.
A part holds a random share of what one study measured. Substitutions count along the parent as printed.

Series 1
Target: RING finger protein unkempt homolog, zinc fingers 1-6, SBP tag (UNK, Homo sapiens, UniProt Q9C0B0, residues 30-357)
Sequence of UniProt Q9C0B0 (30-357, looked up): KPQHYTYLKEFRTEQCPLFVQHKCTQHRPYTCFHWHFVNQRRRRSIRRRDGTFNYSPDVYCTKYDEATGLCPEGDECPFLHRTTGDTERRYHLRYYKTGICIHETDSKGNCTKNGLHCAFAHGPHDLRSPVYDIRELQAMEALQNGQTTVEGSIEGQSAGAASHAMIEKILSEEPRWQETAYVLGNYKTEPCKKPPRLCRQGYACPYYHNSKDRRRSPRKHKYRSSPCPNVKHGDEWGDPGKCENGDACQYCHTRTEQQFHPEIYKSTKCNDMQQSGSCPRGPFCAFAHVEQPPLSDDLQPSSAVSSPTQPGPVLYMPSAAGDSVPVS
Technique: RNA Bind-n-Seq
Form: RNA
Sample: in vitro
Concentration: 100 nM
Notes: RNA with constant flanks, vertebrate orthologous sites, ends assumed
Baseline: input RNA pool
Reading: higher = stronger binding
Oligonucleotide | bound/input enrichment
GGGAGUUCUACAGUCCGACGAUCUUGUAGUGUUUAUGACAACAGUUUUGAAAUUCUAUUUAUUUGCAUAUGUAAGUUUGUACAUAGUAAACCUCAGAUUGGUUUUGGUUUUUUUGGUUUUUUGAGGGACAAGUUUGACUUUUGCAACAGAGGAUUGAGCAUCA | 0.631 ratio
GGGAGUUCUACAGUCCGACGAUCAUGGCACCCCCUGUGAGAGGGAGUGGGGGAAGCCCAGGAUGACCCUCAGUUGUUCCAAUCCAGUAUUUUUUCCUUAAAAAAAAAAUUACUGUAUUUAUUAUGACGAUGGUGACUCCCCAGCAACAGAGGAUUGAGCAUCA | 0.291 ratio
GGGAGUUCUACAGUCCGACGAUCGAGCAGUAAACUGUGCUGGUGCGGAAUCCUGUGCACCAGUGCCCCCUUCACACCACUGUCCUACCUACAGGAAUUUAAUAUUUUUAAAGUUUUACAAUACUGUAUGUAUAUUCAAAGAUUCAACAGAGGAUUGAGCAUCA | 0.248 ratio
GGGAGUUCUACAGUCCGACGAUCAAACUUAGAAAUUGGAGUGAAAGCAGAAUCUAGCAUAAGUAAAACAAGCAUGAAAUGAUCACCACACUCAGUACAACACAGCCUAAGCUGCCACUUAGGGUAGCUAUGUGAAAUAAAAUCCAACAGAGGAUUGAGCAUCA | 2.25 ratio
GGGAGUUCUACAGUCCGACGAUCGUCUAGAGAGGGGUGACAUUAACAUAUCCAAAUAAAGAAAUGCAAUGCUGAAAGUUCUAUCAGUACUAAGGUUAGCUGGAGAAUUUAAAGAAGCCUCUCAGGUAAUUCUAAAAUGAAAAGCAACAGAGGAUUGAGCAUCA | 0.617 ratio
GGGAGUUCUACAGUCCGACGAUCUUUGAUUUUAUGUGUUUAAAAAGUUUAAGAAACAUUGCUUUAAAAAAAAAAAGAAGGAAAAAAGGCAAGUAGAGCAAACGGUUGUUGAAGUAGAAGAGAGAUGUAGGUAGAGGAUGUACUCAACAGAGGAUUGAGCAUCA | 0.359 ratio
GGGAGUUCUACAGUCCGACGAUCCCGAAAGGCCAAAUUCCCUCCUCCCUUCUACUGCUUCUACCAACUGGAAGCACAGAAAACUAGAAUUUCAUUUAUUUUGUUUUUGAAAUAUAUAUGUUGAUUUCUUGUAACAUCCAAUAGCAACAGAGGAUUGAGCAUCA | 0.43 ratio
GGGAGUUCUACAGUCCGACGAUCAAAUCAAUAGAAUUACAUAAUACUAAAGUUACAGUUGAAAGGUAUCCAAGUAUGUGUUCGUAGUUACUAAAAAAAAUUAUAGCUGUUAUUGCCUUGUGUUUAUAGCCCUUGUUUCAGGUUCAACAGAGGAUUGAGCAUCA | 2.73 ratio
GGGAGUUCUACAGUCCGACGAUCAUAAUCACUCUAAUUGUAAUCUGAAUAAAGUGUAACAUUGUGUAGCCUUUUUGUAUAAAAUAGACAAAUAGAAAUGGUCUAAUUAGUUUCCUUUUUAAUAUGCUUAAAAUAAGCAGGUGGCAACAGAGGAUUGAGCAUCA | 2.39 ratio
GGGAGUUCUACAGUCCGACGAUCACUGUUGUUAAGCACUGUGUUCCAGACCAUGUCUGACUUAGUGUAACCUAGGAGAUUUUAUAGUUUUAUUUUAAUGGCACCCCGGUUGACGCAGAGCAGUGGGAAGAGCAGUCCCCUCUACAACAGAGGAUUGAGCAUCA | 9.04 ratio
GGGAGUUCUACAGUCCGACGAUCUUCCCUCAGUGACAGUAUGCCAUCUGUAGCUGAUUCCCACUCAAGUCAUUUCUCUGAAUUUAGUUGUUCUGAUCUAGAAAGCAUGAAAACUUCAUGUAGUCAUGGUUCCAGUGAUUAUCACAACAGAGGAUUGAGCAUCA | 0.669 ratio

Series 2
Target: CCNA2, cyclin fold, Cln2 fusion (human)
Technique: yeast growth competition, sequencing
Sample: yeast
Notes: strong parent motif
Baseline: not given
Reading: higher = stronger binding
Starting sequence: CUX1 docking peptide (human); SRIRRELFIEEIQ
Change | normalised enrichment score
SRIRRELLIEEIQ [F8L] | 0.417
SRIRRELAIEEIQ [F8A] | 0.871
SRIRRELFAEEIQ [I9A] | 4.09
SRIRRELFIEAIQ [E11A] | 2.97
SRIRKELLIEEIQ [R5K F8L] | 0.44
SRIRAELFIEEIQ [R5A] | -0.749
SRIRAEAFIEEIQ [R5A L7A] | -0.254
ARIRRELFIEEIQ [S1A] | 4.34
SRIRRELFIAEIQ [E10A] | 3.7
SRIRREAFIEEIQ [L7A] | 0.82

Series 3
Target: CREBL2, bZIP domain (human)
Technique: DHFR protein complementation
Sample: yeast
Notes: single substitutions, most at no-binding floor
Baseline: wild-type JUN-FOS pair
Reading: higher = stronger binding
Starting sequence: JUN, bZIP domain (human); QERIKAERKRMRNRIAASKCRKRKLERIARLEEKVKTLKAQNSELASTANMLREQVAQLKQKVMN; partner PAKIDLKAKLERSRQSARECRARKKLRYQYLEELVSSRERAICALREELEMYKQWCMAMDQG
Change | binding fitness [natural log]
A57H | -1.24
K34A | -1.19
Q41A | -1.5
E44V | -1.51
K36S | -1.43
L45P | -1.54
L31S | -1.52
M51W | -1.48
I28G | -1.46
Q41L | -1.53
Q55F | -1.65
E32H | -1.43
V35Y | -1.62
K34E | -1.64
T37C | -1.51
K36D | -1.42

Series 4
Target: Histone acetyltransferase KAT6A, winged helix 2, GST fusion (KAT6A, Homo sapiens, UniProt Q92794, residues 85-181)
Technique: protein binding microarray
Form: double-stranded DNA, one strand shown
Sample: in vitro
Concentration: not given
Notes: 8-mer, flanks averaged, mean of 2 arrays, mostly near background
Baseline: not given
Reading: higher = stronger binding
Residues (chain): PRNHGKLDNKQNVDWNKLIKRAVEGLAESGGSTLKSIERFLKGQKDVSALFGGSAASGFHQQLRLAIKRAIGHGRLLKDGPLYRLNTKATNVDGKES
Oligonucleotide | E-score
AGCCTCAG | 0.0299
AGCCCAAA | 0.0192
CGAATAAC | -0.0943
ATCACTGG | -0.0223
AACCGCCC | 0.153
GTTAGCCA | -0.0697
AAAAATGC | 0.16
GTCAGCAC | -0.054
GAAGGGCC | 0.114
CTCAGCTC | -0.11
ACCGACCT | 0.00321
CGTTATCA | -0.0143
ATTCTTAC | 0.0163
AGCAAGCT | 0.00432
AAGAGGAC | -0.0861
CACCGTGG | -0.0198
AAGCTCTC | 0.0671
ACGCGTGG | 0.0143
AGATTCGA | -0.027
CACATTCC | -0.115
TAGCGGAA | -0.0195
GAGCTATC | 0.0103
CTCAGGAC | 0.0204
AGTGTAAT | -0.109
AATCCGGT | 0.194

Series 5
Target: Ras GTPase-activating protein-binding protein 1, full length (G3BP1, Homo sapiens, UniProt Q13283)
Sequence of UniProt Q13283 (whole entry, looked up): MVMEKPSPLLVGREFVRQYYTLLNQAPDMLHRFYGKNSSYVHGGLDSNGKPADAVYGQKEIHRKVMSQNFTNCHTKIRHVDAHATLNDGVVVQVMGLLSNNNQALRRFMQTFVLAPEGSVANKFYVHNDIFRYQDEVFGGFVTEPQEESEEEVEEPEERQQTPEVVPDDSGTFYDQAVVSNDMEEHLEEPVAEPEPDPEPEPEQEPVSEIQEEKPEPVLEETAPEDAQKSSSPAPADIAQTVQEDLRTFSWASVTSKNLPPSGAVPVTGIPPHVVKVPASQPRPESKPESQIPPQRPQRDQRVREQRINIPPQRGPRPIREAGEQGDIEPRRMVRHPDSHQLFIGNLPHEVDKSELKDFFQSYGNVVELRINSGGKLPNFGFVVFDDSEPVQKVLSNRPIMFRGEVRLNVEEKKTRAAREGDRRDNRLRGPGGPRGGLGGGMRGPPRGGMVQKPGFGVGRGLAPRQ
Technique: RNA Bind-n-Seq
Form: RNA
Sample: in vitro
Concentration: 200 nM
Notes: whole 134-nt RNA, ends assumed
Together with: 150 mM LiCl
Baseline: input library
Reading: higher = stronger binding
Library: 7-deaza-guanosine replaces G
Oligonucleotide | log2 enrichment
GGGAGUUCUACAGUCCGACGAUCCCUCAAGUCCUGUGCUACACAUCGUAUGUACCGAAUCGGAGGAAAAAGGAGGAAAGUAUUAUGUUACGCCGUUCGGAUCUGCACUUCCAGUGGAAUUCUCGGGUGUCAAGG | -0.131
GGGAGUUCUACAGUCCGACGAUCCUCAAGUCCUGUGCUACACAUCGUAUGUACCGAAUCGGAAAAAAAGGAGGUGGAAAGUAUUAUGUUACGCCGUUCGGAUCUGCACUUCCAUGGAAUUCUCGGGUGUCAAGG | -0.515
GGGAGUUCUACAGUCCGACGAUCAAGUCCUGUGCUACACAUCGUAUGUACCGAAUCGGGGAAAGGGGAGGGGUUUGGGGAAAGUAUUAUGUUACGCCGUUCGGAUCUGCACUUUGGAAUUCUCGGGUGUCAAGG | -0.28
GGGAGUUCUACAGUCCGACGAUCCUCAAGUCCUGUGCUACACAUCGUAUGUACCGAAUCGGUUUGGUUUGGUUUGGGAAAGUAUUAUGUUACGCCGUUCGGAUCUGCACUUCCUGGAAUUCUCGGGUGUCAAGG | 0.0168
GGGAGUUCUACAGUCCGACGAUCAGUCCUGUGCUACACAUCGUAUGUACCGAAUCGGUUUGGAAAAAAAGGAAAAAAAGGAAAGUAUUAUGUUACGCCGUUCGGAUCUGCACUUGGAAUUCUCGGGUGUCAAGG | -1.48
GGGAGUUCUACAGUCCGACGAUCUCAAGUCCUGUGCUACACAUCGUAUGUACCGAAUCGGGUGGGAAAGGGAAAGGGAAAGUAUUAUGUUACGCCGUUCGGAUCUGCACUUCCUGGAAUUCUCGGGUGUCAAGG | -0.824
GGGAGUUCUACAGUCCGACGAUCGUCCUGUGCUACACAUCGUAUGUACCGAAUCGGGGUUUUUGGUUUUUGGGUUUUUGGGGAAAGUAUUAUGUUACGCCGUUCGGAUCUGCAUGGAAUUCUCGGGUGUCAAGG | -0.553
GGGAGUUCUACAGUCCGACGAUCCUCAAGUCCUGUGCUACACAUCGUAUGUACCGAAUCGGGAAAGGGAGGGAGGGAAAGUAUUAUGUUACGCCGUUCGGAUCUGCACUUCCAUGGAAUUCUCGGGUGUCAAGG | -0.0879
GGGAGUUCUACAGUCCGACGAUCGUCCUGUGCUACACAUCGUAUGUACCGAAUCGGGGUUUUUGGGGUUUUUGGGGUGGGGAAAGUAUUAUGUUACGCCGUUCGGAUCUGCACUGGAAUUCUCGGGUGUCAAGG | -0.407
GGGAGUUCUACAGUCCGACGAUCUCCUGUGCUACACAUCGUAUGUACCGAAUCGGUUUUUUGGUUUUUUGGGUUUUUUGGGGAAAGUAUUAUGUUACGCCGUUCGGAUCUGCAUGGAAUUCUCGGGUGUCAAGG | -0.547
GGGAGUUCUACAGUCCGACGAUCGCAGGAAGUAAAAACAAAUGGAAAUGCUUCGGAUAGUGGCGGGGGUGGGGGUUGCUAAGGAAAGGGUGGGAUGGGAGUGGGUAAAGAGUUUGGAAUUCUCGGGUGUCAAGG | 0.218

Other studies, line by line
Substance | target | test | system | setting | how to read | quantity | result
PhoQ, residues 284 288 289 292 302 303 TVTVVA | PhoP, residues 12 14 15 18 19 TQAML (Escherichia coli, UniProt P23836) | Sort-seq, item: YFP reporter | E. coli | PhoQ-PhoP variant library, together with: 10 µM Mg2+ | baseline: high Mg2+ state, higher = stronger signaling | fold induction | 20.3

For quick reference, copied from above (series 3):
Change | binding fitness [natural log]
M51W | -1.48
V35Y | -1.62
K34E | -1.64
Q41L | -1.53
I28G | -1.46
L31S | -1.52
K36S | -1.43
K36D | -1.42
L45P | -1.54
K34A | -1.19
A57H | -1.24
E44V | -1.51
